Experimental data collected from several papers.
Each line is one published result; not all experiments were run side by side. “And” joins repeats or separate records; there may be more than shown. ± gives the spread as reported.
Fibroin-modulator-binding protein-1: Fibroin-modulator-binding protein-1 99-193 (Bombyx mori, UniProt Q5FBS0)
SPT15/TOA1/TOA2/SUA7 1-240; 1-286; 1-122; 1-345: SPT15/TOA1/TOA2/SUA7 1-240; 1-286; 1-122; 1-345 (Saccharomyces cerevisiae)
RECQL: RECQL 49-616 (Homo sapiens, UniProt P46063)
Sequence of UniProt P46063 (whole entry, looked up): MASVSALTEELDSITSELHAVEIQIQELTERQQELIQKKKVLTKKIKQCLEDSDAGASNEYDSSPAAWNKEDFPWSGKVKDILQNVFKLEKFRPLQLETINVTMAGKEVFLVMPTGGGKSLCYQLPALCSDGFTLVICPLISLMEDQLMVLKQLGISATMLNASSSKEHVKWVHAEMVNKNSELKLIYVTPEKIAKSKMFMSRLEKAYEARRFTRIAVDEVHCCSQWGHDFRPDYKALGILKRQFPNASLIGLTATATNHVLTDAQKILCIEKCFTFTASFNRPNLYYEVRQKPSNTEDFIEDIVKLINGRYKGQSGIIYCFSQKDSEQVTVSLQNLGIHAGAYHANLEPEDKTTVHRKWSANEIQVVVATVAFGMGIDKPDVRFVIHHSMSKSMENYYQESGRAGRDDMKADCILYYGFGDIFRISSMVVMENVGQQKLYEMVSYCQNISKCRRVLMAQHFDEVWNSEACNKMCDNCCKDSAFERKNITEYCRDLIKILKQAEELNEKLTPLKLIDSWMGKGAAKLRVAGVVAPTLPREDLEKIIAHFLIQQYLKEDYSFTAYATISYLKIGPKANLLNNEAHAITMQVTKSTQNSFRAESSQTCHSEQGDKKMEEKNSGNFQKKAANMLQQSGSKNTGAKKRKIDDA
CGAS: CGAS 161-522 (Homo sapiens, UniProt Q8N884)
Sequence of UniProt Q8N884 (whole entry, unmodified, looked up): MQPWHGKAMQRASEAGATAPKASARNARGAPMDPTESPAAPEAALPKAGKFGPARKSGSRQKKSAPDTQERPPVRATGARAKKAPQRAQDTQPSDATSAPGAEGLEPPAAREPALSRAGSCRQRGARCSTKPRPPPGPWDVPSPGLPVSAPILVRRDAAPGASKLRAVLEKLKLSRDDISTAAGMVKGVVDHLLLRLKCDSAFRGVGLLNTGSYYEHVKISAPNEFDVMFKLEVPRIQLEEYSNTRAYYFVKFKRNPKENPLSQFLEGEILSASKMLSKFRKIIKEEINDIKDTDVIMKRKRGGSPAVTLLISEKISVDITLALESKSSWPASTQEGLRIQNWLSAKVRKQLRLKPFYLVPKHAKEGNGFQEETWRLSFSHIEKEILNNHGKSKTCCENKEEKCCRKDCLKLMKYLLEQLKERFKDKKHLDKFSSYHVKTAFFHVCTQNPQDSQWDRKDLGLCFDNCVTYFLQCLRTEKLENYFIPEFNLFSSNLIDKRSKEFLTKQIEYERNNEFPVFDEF
Sequence of UniProt Q64663 (whole entry, unmodified, looked up): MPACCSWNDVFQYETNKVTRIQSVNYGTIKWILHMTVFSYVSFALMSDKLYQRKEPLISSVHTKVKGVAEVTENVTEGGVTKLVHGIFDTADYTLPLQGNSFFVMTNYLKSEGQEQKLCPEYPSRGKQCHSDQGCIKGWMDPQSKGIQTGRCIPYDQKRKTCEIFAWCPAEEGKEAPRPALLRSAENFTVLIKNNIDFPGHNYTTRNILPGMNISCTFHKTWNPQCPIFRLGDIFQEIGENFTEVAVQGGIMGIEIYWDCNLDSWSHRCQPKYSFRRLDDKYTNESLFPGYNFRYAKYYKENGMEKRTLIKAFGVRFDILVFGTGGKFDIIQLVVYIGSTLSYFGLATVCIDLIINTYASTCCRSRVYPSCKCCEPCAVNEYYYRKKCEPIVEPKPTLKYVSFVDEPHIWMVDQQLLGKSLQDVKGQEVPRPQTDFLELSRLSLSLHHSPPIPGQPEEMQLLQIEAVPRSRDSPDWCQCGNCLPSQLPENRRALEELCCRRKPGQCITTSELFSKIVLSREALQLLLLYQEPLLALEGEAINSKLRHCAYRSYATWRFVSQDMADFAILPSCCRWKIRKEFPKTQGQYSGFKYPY
Sequence of UniProt P01185 (whole entry, looked up): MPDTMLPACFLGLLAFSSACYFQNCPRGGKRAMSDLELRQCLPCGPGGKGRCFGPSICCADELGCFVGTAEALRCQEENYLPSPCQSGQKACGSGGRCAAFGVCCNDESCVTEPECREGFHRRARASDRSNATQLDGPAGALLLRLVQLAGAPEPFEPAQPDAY
Sequence of UniProt P0ACN4 (whole entry, looked up): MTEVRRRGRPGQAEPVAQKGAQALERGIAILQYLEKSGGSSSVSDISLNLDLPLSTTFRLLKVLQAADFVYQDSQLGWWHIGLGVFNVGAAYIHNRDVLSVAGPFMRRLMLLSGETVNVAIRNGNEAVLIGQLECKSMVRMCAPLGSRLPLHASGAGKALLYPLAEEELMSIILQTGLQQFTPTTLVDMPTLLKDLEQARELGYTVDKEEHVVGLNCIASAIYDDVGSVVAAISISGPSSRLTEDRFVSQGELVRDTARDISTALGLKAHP
Sequence of UniProt P18848 (whole entry, unmodified, looked up): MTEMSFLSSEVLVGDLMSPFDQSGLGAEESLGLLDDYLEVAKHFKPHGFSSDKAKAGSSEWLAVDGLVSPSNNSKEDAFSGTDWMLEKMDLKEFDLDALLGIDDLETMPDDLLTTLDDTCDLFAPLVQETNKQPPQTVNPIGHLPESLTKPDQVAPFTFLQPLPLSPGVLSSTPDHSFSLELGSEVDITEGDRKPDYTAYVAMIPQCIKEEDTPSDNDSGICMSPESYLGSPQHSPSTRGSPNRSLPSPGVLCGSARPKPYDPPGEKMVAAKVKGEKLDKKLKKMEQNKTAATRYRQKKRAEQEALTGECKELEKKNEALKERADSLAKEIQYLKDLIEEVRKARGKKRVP
Sequence of UniProt P19880 (whole entry, looked up): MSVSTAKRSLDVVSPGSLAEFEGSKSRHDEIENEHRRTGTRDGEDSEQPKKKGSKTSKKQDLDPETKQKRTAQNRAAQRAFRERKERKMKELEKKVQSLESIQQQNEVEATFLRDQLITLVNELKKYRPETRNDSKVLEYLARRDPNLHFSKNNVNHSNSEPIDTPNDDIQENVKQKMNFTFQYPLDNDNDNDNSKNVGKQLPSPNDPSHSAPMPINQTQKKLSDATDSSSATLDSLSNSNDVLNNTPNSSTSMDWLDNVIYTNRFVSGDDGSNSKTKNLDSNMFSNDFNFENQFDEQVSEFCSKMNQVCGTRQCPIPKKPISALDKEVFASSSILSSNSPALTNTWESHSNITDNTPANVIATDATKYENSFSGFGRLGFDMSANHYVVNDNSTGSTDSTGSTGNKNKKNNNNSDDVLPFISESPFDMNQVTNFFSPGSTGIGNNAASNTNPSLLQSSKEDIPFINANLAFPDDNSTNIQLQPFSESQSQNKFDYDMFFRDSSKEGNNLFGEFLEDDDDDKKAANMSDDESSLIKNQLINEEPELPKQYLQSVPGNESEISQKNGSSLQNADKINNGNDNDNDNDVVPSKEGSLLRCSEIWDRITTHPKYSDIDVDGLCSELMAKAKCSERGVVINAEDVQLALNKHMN
Sequence of UniProt P04150 (whole entry, looked up): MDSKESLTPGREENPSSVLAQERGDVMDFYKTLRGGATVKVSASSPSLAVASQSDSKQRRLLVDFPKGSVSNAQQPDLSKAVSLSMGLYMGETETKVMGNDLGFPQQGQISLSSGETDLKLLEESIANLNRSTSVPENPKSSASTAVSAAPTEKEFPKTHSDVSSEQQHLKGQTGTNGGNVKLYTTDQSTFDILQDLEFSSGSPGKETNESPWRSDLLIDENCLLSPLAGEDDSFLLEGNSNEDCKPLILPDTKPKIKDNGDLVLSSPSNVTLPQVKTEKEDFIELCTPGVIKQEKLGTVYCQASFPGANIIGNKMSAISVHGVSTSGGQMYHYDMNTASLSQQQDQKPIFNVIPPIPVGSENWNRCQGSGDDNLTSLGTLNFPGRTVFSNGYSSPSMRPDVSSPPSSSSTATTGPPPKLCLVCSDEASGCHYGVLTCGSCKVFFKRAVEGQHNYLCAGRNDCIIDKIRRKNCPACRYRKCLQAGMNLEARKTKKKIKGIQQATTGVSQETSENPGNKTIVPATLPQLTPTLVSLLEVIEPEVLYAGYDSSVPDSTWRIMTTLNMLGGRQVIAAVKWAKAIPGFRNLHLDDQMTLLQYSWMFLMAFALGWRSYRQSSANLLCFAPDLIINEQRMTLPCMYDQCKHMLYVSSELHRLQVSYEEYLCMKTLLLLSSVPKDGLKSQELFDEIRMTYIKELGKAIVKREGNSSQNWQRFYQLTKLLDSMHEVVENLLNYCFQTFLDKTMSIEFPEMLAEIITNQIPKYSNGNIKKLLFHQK
Sequence of UniProt Q8IUX4 (whole entry, looked up): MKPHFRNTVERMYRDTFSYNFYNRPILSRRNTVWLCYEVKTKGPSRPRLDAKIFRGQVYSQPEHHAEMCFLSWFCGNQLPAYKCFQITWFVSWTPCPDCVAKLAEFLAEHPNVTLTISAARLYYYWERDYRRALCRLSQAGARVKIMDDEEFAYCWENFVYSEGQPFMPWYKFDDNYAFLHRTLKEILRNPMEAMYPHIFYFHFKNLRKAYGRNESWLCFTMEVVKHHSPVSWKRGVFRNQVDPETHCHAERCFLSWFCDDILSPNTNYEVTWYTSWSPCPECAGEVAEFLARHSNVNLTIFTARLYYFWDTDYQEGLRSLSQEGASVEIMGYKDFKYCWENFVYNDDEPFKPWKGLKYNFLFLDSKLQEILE
Sequence of UniProt Q03111 (whole entry, looked up): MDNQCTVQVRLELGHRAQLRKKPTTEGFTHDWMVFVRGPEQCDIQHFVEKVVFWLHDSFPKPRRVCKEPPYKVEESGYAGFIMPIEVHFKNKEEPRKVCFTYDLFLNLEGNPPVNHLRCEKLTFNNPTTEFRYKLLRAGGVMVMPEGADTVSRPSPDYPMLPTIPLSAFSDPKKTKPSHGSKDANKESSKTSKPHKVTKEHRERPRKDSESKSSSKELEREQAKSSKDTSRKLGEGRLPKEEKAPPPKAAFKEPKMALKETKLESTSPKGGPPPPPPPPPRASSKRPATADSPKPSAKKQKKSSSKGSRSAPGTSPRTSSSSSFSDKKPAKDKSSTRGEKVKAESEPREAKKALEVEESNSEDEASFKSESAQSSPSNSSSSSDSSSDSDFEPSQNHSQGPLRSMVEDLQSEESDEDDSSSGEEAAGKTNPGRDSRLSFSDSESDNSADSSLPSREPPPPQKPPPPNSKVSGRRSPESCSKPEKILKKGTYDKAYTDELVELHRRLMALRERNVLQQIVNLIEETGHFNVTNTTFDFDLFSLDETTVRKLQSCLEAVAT

`ATCGATCGATCG (dsDNA)` gave a Kd of 2.99 ± 0.362 µM (Fibroin-modulator-binding protein-1; ITC; double-stranded DNA, one strand shown).
With `TCCTGAAGGGACGCCTATAAAAGGTCCTATCGTCGTCAAGTCAATCGGTCC (dsDNA; 5'-amino-C6 primer)` the Kd was 0.00401 ± 0.00137 µM (SPT15/TOA1/TOA2/SUA7 1-240; 1-286; 1-122; 1-345; array; double-stranded DNA, one strand shown; TBP:TFIIA:TFIIB ternary complex).
`11-deoxycorticosterone`: “rate constant k-1” 622 min⁻¹ (human CYP11B2; substrate, stopped-flow kinetics; 4-state closed model, with: adrenodoxin 10-fold excess).
The Kd of `DNA 1 GGATCTCGACGCTCTCCCTT / DNA 2 GAGAGCGTCGAGATCC (dsDNA; 3' 4-nt overhang, blunt end)` is reported as 0.528 ± 0.05 µM (RECQL; fluorescence anisotropy; double-stranded DNA; Mg2+ 5 mM, without ADPNP).
For `DNA 1 GATCGATCGATCGAATTCTCGATCGATCGATCGATTCAATTCAATCGGTCC / DNA 2 GGACCGATTGACTTGAATCGATCGATCGATCGAGAATTCGATCGATCGATC (dsDNA; 5'-amino-C6 primer)`, the Kd was 0.00246 ± 0.00049 µM (SPT15/TOA1/TOA2/SUA7 1-240; 1-286; 1-122; 1-345; array; double-stranded DNA; TBP:TFIIA:TFIIB ternary complex).
`VMRLQSETSV` — result for “normalised SPR binding response”: 67 normalised RU (human SCRIB PDZ3-4 tandem (MBP fusion); surface plasmon resonance; peptide; concentration not given; higher = stronger binding).
The Kd of `AGTAAGTAAGTA (dsDNA)` is reported as 6.05 µM (Fibroin-modulator-binding protein-1; ITC; double-stranded DNA, one strand shown).
With `FNA / CGLSGLGVA-NH2 ([18F]FNA-labelled, C-amide)` the tissue uptake was 0.45 %ID/g (ex vivo gamma counting; peptide, healthy mouse, ovaries; 60 min post injection).
For `TCGATCGATCGA (dsDNA)`, the Kd was 2.67 ± 0.128 µM (Fibroin-modulator-binding protein-1; ITC; double-stranded DNA, one strand shown).
The Kd of `ATGATGTCCTTTTCCAAAAACGCCACTCCTAGAGCTCAAGTCAATCGGTCC (dsDNA; 5'-amino-C6 primer)` is reported as 0.0057 ± 0.0022 µM (SPT15/TOA1/TOA2/SUA7 1-240; 1-286; 1-122; 1-345; array; double-stranded DNA, one strand shown; TBP:TFIIA:TFIIB ternary complex).
With `ATTTATATTATTTATTCATATTTATATTTA (ssDNA)` the Kd was 1.1 ± 0.335 µM (APOBEC3F full length assumed (Homo sapiens, UniProt Q8IUX4); EMSA; single-stranded DNA).
`Peginesatide` has a phosphorylation level of 3.4 fold (UT7/EPO; tyrosine phosphorylation, LC-MS/MS phosphoproteomics, GluC, measured: CD33 tyrosine 340; 10 nM, 15 min, with: 10 U/mL EPO; baseline: vehicle).
With `TTGACAAAATTTGAAAGTTGGAAGATATGCCCAATAAATAGAGGTAGGAATAAAATGGCAA (dsDNA)` the Kd was 0.423 µM (allR full length assumed (Escherichia coli, UniProt P0ACN4); BLI; double-stranded DNA, one strand shown).
The Kd of `CTCAGGAATTCCTATACAGTAATGTGGAGCTCAGTTCAAGTCAATCGGTCC (dsDNA; 5'-amino-C6 primer)` is reported as 0.00226 ± 0.00056 µM (SPT15/TOA1/TOA2/SUA7 1-240; 1-286; 1-122; 1-345; array; double-stranded DNA, one strand shown; TBP:TFIIA:TFIIB ternary complex).
`CTCTCGGGACGACGTCCAAGTAGTACGTTTAATTAGGATTTCCGAATTATTGGCATGCGTCGTCCC (DNA; stem-loop; 5' amino group)` has a Kd of 0.0013 µM (arginine vasopressin 20-28 (Homo sapiens, UniProt P01185); FET; folded DNA; apparent).
`CGCTTATAGAATTATATAATTATCCAATTATCGAATTATCTAATTATGCAATTATCTCCGGCGGTATGAC (dsDNA)` has a Kd of 1.4 ± 0.1 µM (YAP1 full length assumed (Saccharomyces cerevisiae, UniProt P19880); MITOMI; double-stranded DNA, one strand shown; not purified).
With `RNA 1 UAAGACACGAUGCGAUAAAAUCUG / RNA 2 CAGAUUUUAUCGCAUCGUGUCUUA (dsRNA)` the Kd was 0.356 ± 0.061 µM (CGAS; fluorescence anisotropy; double-stranded RNA).
The Kd of `AGTCCGTGGTAGGGCAGGTTGGGGTGACT (ssDNA)` is reported as 0.0334 ± 0.0037 µM (F2 / (Homo sapiens); fluorescence anisotropy; single-stranded DNA).
`GSGAGSETKM`: “normalised SPR binding response” 0 normalised RU (human MAGI1-2/6 PDZ construct (MBP fusion); surface plasmon resonance; peptide; concentration not given; higher = stronger binding).
Under “mean fluorescence intensity”, `ACEEQNPWARYLEWLFPTETLLLEL` is recorded as 806 ± 112 a.u. (ex vivo fluorescence imaging; peptide, BALB/c mice, 4T1 tumour-bearing, liver; intravenous, 5 nmol, 2 h post-injection; higher = more uptake).
For `TAACAGTCACCCCCCNACTAAC / GTTAGTTGGGGGGTGACTGTTA (dsDNA; blunt, THF abasic site)`, the Kd was 0.00071 ± 0.00032 µM (TFAM 43-246 (Homo sapiens, UniProt Q00059); fluorescence polarization; apparent).
The Kd of `AAAUGAGGCGCUGCAUGUGGCAGUCUGCCUUUCUUU (structured RNA)` is reported as 0.15 ± 0.017 µM (MLLT1 1-140 (Homo sapiens, UniProt Q03111); fluorescence polarization; folded RNA).
`DNA 1 CACTGGCCGTCTTACGGTCGCTCTGCTCGACG / DNA 2 CGACCGTAAGACGGCCAGTG (dsDNA; 20 bp, 3' 12 nt overhang)` has a Kd of 0.0179 ± 0.0059 µM (RECQL 63-592 K171A (Bos taurus, UniProt A0JN36); fluorescence anisotropy; double-stranded DNA; with: Mg2+ 3 mM).
The Kd of `ATCAATCAATCA (dsDNA)` is reported as 2.62 ± 0.582 µM (Fibroin-modulator-binding protein-1; ITC; double-stranded DNA, one strand shown).
`insulin degludec` gave a terminal half-life of 15.3 ± 2.7 h (human; subcutaneous, 0.4 IU/kg, 2 FC level, single dose, reference formulation).
`TAAGACACGATGCGATAAAATCTGTTTGTAAAATTTATTAAGGGTACAAATTGCCCTAGC (dsDNA)` gave a Kd of 0.0514 ± 0.0011 µM (CGAS; fluorescence anisotropy; double-stranded DNA, one strand shown).
`colistin` has an MIC of 1 µg/mL (Pseudomonas aeruginosa; broth microdilution; clinical isolate RKI-No_484/15).
For `DNA 1 TGGGTGGGTAGGGTGGGTAGGGGAGGAT / DNA 2 ATCCTCCCCTA (DNA; intramolecular parallel G4, 5' overhang, 11-bp duplex)`, the Kd was 0.0065 ± 0.0017 µM (REV1 330-833 G498E (Homo sapiens, UniProt Q9UBZ9); FP; folded DNA; KCl 100 mM).
`CTCAGGAATTCCTATAGAGTAATGTGGAGCTCAGTTCAAGTCAATCGGTCC (dsDNA; 5'-amino-C6 primer)` gave a Kd of 0.0085 ± 0.0049 µM (SPT15/TOA1/TOA2/SUA7 1-240; 1-286; 1-122; 1-345; array; double-stranded DNA, one strand shown; TBP:TFIIA:TFIIB ternary complex).
The Kd of `DNA 1 GGATCTCGACGCTCTCCCTT / DNA 2 GTCGAGATCC (dsDNA; 3' 10-nt overhang, blunt end)` is reported as 0.131 ± 0.014 µM (RECQL; fluorescence anisotropy; double-stranded DNA; Mg2+ 5 mM, without ADPNP).
With `CGCACGCACGCA (dsDNA)` the Kd was 4.43 ± 0.542 µM (Fibroin-modulator-binding protein-1; ITC; double-stranded DNA, one strand shown).
The Kd of `CTCGCTCCATCTCCAGAACTACAAGTCCCAGAGTGTCAAGTCAATCGGTCC (dsDNA; 5'-amino-C6 primer)` is reported as 0.00159 ± 0.00024 µM (SPT15/TOA1/TOA2/SUA7 1-240; 1-286; 1-122; 1-345; array; double-stranded DNA, one strand shown; TBP:TFIIA:TFIIB ternary complex).
For `ATTCATTCATTC (dsDNA)`, the Kd was 0.655 ± 0.0803 µM (Fibroin-modulator-binding protein-1; ITC; double-stranded DNA, one strand shown).
For `TCCTGAAGGGGCGCCTATAAAAGGTCCTATCGTCGTCAAGTCAATCGGTCC (dsDNA; 5'-amino-C6 primer)`, the Kd was 0.0317 ± 0.0797 µM (SPT15/TOA1/TOA2/SUA7 1-240; 1-286; 1-122; 1-345; array; double-stranded DNA, one strand shown; TBP:TFIIA:TFIIB ternary complex).
`AAAGAAAGAAAGAAAGAAAGAAAG (ssDNA)` has a Kd of 1.13 ± 0.048 µM (CGAS 161-522 K394E (Homo sapiens, UniProt Q8N884); fluorescence anisotropy; single-stranded DNA).
`CGCGCGCGCGCG (dsDNA)` gave a Kd of 3.41 ± 0.627 µM (Fibroin-modulator-binding protein-1; ITC; double-stranded DNA, one strand shown).
The Kd of `AGAACAGAGTGTTCT (dsDNA)` is reported as 0.23 µM (NR3C1 98-525 (Homo sapiens, UniProt P04150); fluorescence anisotropy; double-stranded DNA, one strand shown).
`CACTCTGACGTCACACTC (dsDNA)` has a Kd of 3.08 ± 0.73 µM (ATF4 276-341 C310A (Homo sapiens, UniProt P18848); fluorescence polarization; double-stranded DNA, one strand shown; one-site model, dimer, with: Mg2+ 10 mM).
`BzATP` has a normalized current of 0.349 and 0.266 and 0.308 (P2X purinoceptor 7 (P2rx7, Rattus norvegicus, UniProt Q64663, Q143A/R125A); ion current, agonist, two-electrode voltage clamp; Xenopus laevis oocytes; 11 µM; baseline: highest concentration response).
For `DNA 1 GCCGGGCCGGCCGGCCGGCCCCCGGGGCCCGGCGCTCAATTCAATCGGTCC / DNA 2 GGACCGATTGACTTGAGCGCCGGGCCCCGGGGGCCGGCCGGCCGGCCCGGC (dsDNA; blunt; C:T mismatch; 5'-amino-C6 primer)`, the Kd was 0.00287 ± 0.00033 µM (SPT15/TOA1/TOA2/SUA7 1-240; 1-286; 1-122; 1-345; array; double-stranded DNA; TBP:TFIIA:TFIIB ternary complex).
`GATGGATGGATG (dsDNA)` gave a Kd of 2.05 ± 0.188 µM (Fibroin-modulator-binding protein-1; ITC; double-stranded DNA, one strand shown).
`AAAGAAAGAAAGAAAGAAAGAAAG (ssRNA)` has a Kd of 1.52 ± 0.28 µM (CGAS; fluorescence anisotropy; RNA).

Excerpt of the above:
For `TCCTGAAGGGGCGCCTATAAAAGGTCCTATCGTCGTCAAGTCAATCGGTCC (dsDNA; 5'-amino-C6 primer)`, the Kd was 0.0317 ± 0.0797 µM (SPT15/TOA1/TOA2/SUA7 1-240; 1-286; 1-122; 1-345; array; double-stranded DNA, one strand shown; TBP:TFIIA:TFIIB ternary complex).
`AAAGAAAGAAAGAAAGAAAGAAAG (ssDNA)` has a Kd of 1.13 ± 0.048 µM (CGAS 161-522 K394E (Homo sapiens, UniProt Q8N884); fluorescence anisotropy; single-stranded DNA).
`CGCGCGCGCGCG (dsDNA)` gave a Kd of 3.41 ± 0.627 µM (Fibroin-modulator-binding protein-1; ITC; double-stranded DNA, one strand shown).
The Kd of `AGAACAGAGTGTTCT (dsDNA)` is reported as 0.23 µM (NR3C1 98-525 (Homo sapiens, UniProt P04150); fluorescence anisotropy; double-stranded DNA, one strand shown).
